Results collected from several papers.
Compare with care: the assays were run in different laboratories. Several values in a cell are separate wells, animals, samples, runs or records. ± gives the spread as reported.

CC(=O)c1cccc(NC(=O)CSc2nnc(-c3cc4ccccc4cc3O)n2C)c1 gave a logP of 1.48 (octanol/buffer; pH 11, known kinase inactives set).
O=C(O)c1cccc(C(=O)O)c1 — result for “apparent dissolution enthalpy”: 2.88 kcal/mol (betaine/propylene glycol DES-water; DES mass fraction 0.40).
NCCONC(=O)[C@@H]1CC[C@@H]2CN1C(=O)N2OS(=O)(=O)O — result for “adverse event incidence”: 0% (refers to: leading to withdrawal; healthy Chinese men; intravenous, 2 g, treatment-related).
N[C@H]1C(O)O[C@H](CO)[C@@H](O)[C@@H]1O (stereo partly shown) gave an osmolality of 3 mOsmol/kg (aqueous solution; 5 mM, together with: glucose).
C=CC(=O)N(C)CCOc1c(N)ncnc1-c1cc(F)cc(NC(=O)c2ccc(C3CC3)cc2F)c1C: “additional systemic clearance” 658 mL/min (human, whole blood; intravenous, 100 µg, drug interaction study).
For N#Cc1ccc2c(c1)[C@H]1CCCN(C(=O)c3ccc4[nH]cnc4c3)[C@H]1C2, “median ACTH level” read 8 pmol/L (human; 360 mg, day 15).
For CCn1cc(C(=O)N2CCOCC2)c(=O)c2cc(NC3Cc4ccccc4C3)cnc21, the half-life was 3.48 h (human, fed; oral suspension, 1200 mg/day twice daily, day 1, arithmetic mean).
The concentration of CCc1c(-c2ccccc2)c(-c2ccccc2)nn1-c1ccccc1-c1cccc(OCC(=O)O)c1 is reported as 220 ng/g (male Sprague-Dawley rat, testis; oral, 10 mg/kg, 1 h).
For O=S(=O)(c1ccc(-c2ccc3nccc(Nc4ccncn4)c3c2)cc1)N1CCOCC1, the brain concentration was 0 ng/g (female BALB/c mice, brain; intraperitoneal, 10 mg/kg, 4 h, mean).
Under “decrease in CL/F”, N[C@@H]1c2cccnc2[C@H](OC(=O)N2CCC(n3c(=O)[nH]c4ncccc43)CC2)CC[C@H]1c1cccc(F)c1F is recorded as 42.3% (human, severe hepatic impairment; oral, 75 mg; relative to: healthy subjects).
Cc1cc(-c2nccc3c2ccn3CC(=O)Nc2ccc(-c3cnccn3)cn2)ccn1 has a post-procedural inflammation of 11.1% (human; 20 mg once daily, multiple ascending dose).
For Cn1c(=O)[nH]c(=O)c2[nH]cnc21, CSF concentration read “not detected” (human, cerebrospinal fluid; dose not given, mean).
The Seizure patients of CNC(=O)c1ccc(-c2cnc3ncc(Cc4ccc5ncccc5c4)n3n2)cc1F is reported as 0% (Japanese patients; oral, 400 mg twice daily, grade 3/4).
With C[C@H]1Oc2cc(cnc2N)-c2c(nn(C)c2C#N)CN(C)C(=O)c2ccc(F)cc21 the dose-normalised AUClast was 45 ng·h/mL/mg (human patients, plasma; oral, dose not given, cycle 2 day 1, median, together with: avelumab).
Under “nucleoside remaining fraction”, CO[C@@H]1[C@H](O)[C@@H](CO)O[C@H]1n1c([N+](=O)[O-])nc2c(=O)[nH]c(N)nc21 is recorded as 0.713 (depurination, RP-HPLC; citrate-phosphate buffer 0.5 mM; 1177 min, pH 7, 37 °C).
The pKa2 of COc1cc(OC)cc(N(CCNC(C)C)c2ccc3ncc(-c4cnn(C)c4)nc3c2)c1 is reported as 2.
For NC(=O)N1c2ccccc2C=Cc2ccccc21, “time to first slip” read 0.8 ± 0.08 min (rotarod test; mouse, CCI neuropathic pain model; 20 mg/kg).
COc1ccc2[nH]cc(CCNC(=O)Nc3ccc(Cl)c(Cl)c3)c2c1 has a logP of 5.33 (octanol/buffer; pH 11, known kinase inactives set).
For CCc1cc(C(=O)NC)c2nccc(N3CCc4c(cc(Cn5ccnc5)cc4-c4cn(C)nc4C(F)(F)F)C3=O)c2c1, “change in ALB” read 0.4% (Sprague Dawley rat; oral, 100 mg/kg once daily, 7 days; relative to: vehicle).
With CNS(=O)(=O)Cc1ccc2[nH]cc(CCN(C)C)c2c1 the logP was 0.88 and 0.94 (octanol/buffer; pH 11, known kinase inactives set).
For Cc1cc(=O)n(-c2ccccc2)n1C, “loss by adsorption” read 8.2 ± 4.3% (empty perfusion, no placenta; maternal circuit tubing; 5 µM, 360 min; relative to: initial amount).
The zeta potential of CCCCC/C=C\C/C=C\CCCCCCCCC(CCCCCCCC/C=C\C/C=C\CCCCC)OC(=O)CCCN(C)C is reported as 0.55 mV (pH 7.5, formulated).
CC(C)(C(=O)N1CCOc2c(C#N)cncc2C1)C(F)F: “subjects with TEAE” 0% (refers to: haematochezia; human, both sexes; oral, 10 mg once daily, 14 days, multiple ascending dose).
Under “participants with serious TEAEs”, C[C@H]1CN(C(=O)CC#N)[C@]12CCN(c1ncnc3[nH]ccc13)C2 is recorded as 0% (human; oral, 1.5 mg single dose).
With CCN1/C(=C/C(C)=O)Sc2ccc(F)cc21 the QRS duration was 36 ± 1 ms (cynomolgus monkey; oral, 10 mg/kg, 6 h post-dose).
The SUV of [18F]c1ccc(-c2ccc3c(c2)[nH]c2ccncc23)cn1 is reported as 0.572 ± 0.316 (ex vivo biodistribution; B6SJL mouse, normal, hippocampus; intravenous, 30 min).
CC[C@H](C)/C=C/C(=O)N1CCC[C@H]1C(=O)N[C@@H](CCC1CCCCC1)C(=O)N[C@H](C(=O)NC(C)(C)C(=O)N[C@@H](CC(C)C)C(=O)N[C@@H](CC(C)C)C(=O)NC(C)(C)C(=O)NC(C)(C)C(=O)NCCC(=O)N[C@@H](C)CN(C)C)[C@H](O)C(C)C has an alpha-helix content of 38.4% (circular dichroism; phosphate buffer; pH 7.4, 20 °C).
CNC(=O)c1cc(Oc2ccc(NC(=O)Nc3ccc(Cl)c(C(F)(F)F)c3)c(F)c2)ccn1: “long-term stability accuracy” 98.5% (mouse plasma; 75 ng/mL, 6 months, -80 °C).
C=CC(=O)N1CCC[C@@H](n2nc(-c3ccc(Oc4ccccc4)cc3)c3c(N)ncnc32)C1 has a decomposition temperature of 353 °C (thermogravimetric analysis).
FC(F)(F)c1ccc(CNc2ccc(Cc3c[nH]c4ncc(Cl)cc34)cn2)cn1 — result for “adverse event incidence”: 30% (refers to: decreased appetite; patients with advanced solid tumours; oral, dose not given, grade 1 and 2, possibly related to drug).
Under “log2 fold change”, Cn1cc(-c2ccc(-c3cncc(Cl)c3N3CCC4(CCNC4=O)CC3)cc2)cn1 is recorded as -1.5 (COLO 205; gene expression, microarray, refers to: TNFSF10 mRNA; concentration not given, 2 h; relative to: untreated cells).
The logP of COC(=O)c1ccccc1Oc1nc(NC(C)C)nc(NC(C)C)n1 is reported as 3.54 (octanol/buffer; pH 11, known kinase inactives set).
For O=C(COc1ccc(Cl)cc1)NC12CC(c3nnc([C@H]4C[C@@H](OC(F)(F)F)C4)o3)(C1)C2, the steady-state Ctrough was 13 µM (healthy human both sexes, plasma; oral, 260 mg once daily, day 14, mean).
For C=CC(=O)N1CCC(c2ccc(C(N)=O)c(-c3ccc(Oc4ccccc4)cc3)n2)CC1, “incidence of serious bladder cancer” read 0.9% (CTCAE 4.03; patients with relapsed/refractory MCL; oral, dose not given).
With O=C1c2ccccc2C(=O)N1CCCc1nc(-c2cccc([N+](=O)[O-])c2)no1 the logP was 2.27 (octanol/buffer; pH 11).
Under “dose-normalised C6 (C6/D)”, CC1(C)CCC(CN2CCN(c3ccc(C(=O)NS(=O)(=O)c4ccc(NCC5CCOCC5)c([N+](=O)[O-])c4)c(Oc4cnc5[nH]ccc5c4)c3)CC2)=C(c2ccc(Cl)cc2)C1 is recorded as 0.319 ± 0.196 (UPLC-MS/MS; patients; oral, dose not given, 6 h, together with: triazole antifungals).
NC1(C(=O)N[C@@H](CCO)c2ccc(Cl)cc2)CCN(c2nc[nH]c3nccc2-3)CC1: “incidence of decreased appetite” 0% (metastatic CRPC patients; 320 mg b.i.d., grade 3 to 4, treatment-related, together with: enzalutamide 160 mg daily).
O=C(Nc1nc2cccc(-c3ccc(CN4CCS(=O)(=O)CC4)cc3)n2n1)C1CC1 — result for “treatment-emergent adverse events”: 0% (refers to: arthralgia; human rheumatoid arthritis patients; oral, 75 mg once daily, 4 weeks, regardless of relatedness).
NC(=O)c1ccc(C(=O)Nc2cc(C3CC3)[nH]n2)cc1 has a logP of 1.25 (octanol/buffer; pH 11).
For CCn1c(=O)c(-c2cc(NC(=O)Nc3ccccc3)c(F)cc2Br)cc2cnc(NC)cc21, “participants with drug-related TEAE” read 62.5% (refers to: lipase increased; human, mild hepatic impairment; oral, 50 mg single dose).
For CC(C)n1c(Nc2cccnc2)nc2cnc(Nc3ccc(N4CCN(C)CC4)cc3)nc21, “subjects with adverse event” read 7.1% (refers to: oral ulcers; healthy male subjects; oral, 150 mg, study, together with: rifampin).
O=C(O)CCC(=O)O.[2H]C([2H])([2H])Oc1cc(C)c2[nH]ccc2c1CN1CC[C@@H](C2CC2)C[C@H]1c1ccc(C(=O)O)cc1 gave a Vd/F of 47 L (LC-MS/MS, mean; human, plasma; 50 mg, single dose, fasting).
With Cl.[2H]C([2H])([2H])CC(=O)c1cnc(NC(=O)C2CC2)cc1Nc1cccc(-c2ncn(C([2H])([2H])[2H])n2)c1OC the Cmax was 217 ng/mL (geometric mean; human; oral, 17.5 mg single dose, fasted, liquid).
The Cmax of CCN1CCN(Cc2ccc(NC(=O)c3ccc(C)c(NC(=O)c4cncc(-c5cccs5)c4)c3)cc2C(F)(F)F)CC1 is reported as 1490 ng/mL (C57BL/6 mice, epithelial lining fluid; intraperitoneal, 10 mg/kg).
The logP of Cc1nc(N)sc1-c1ccnc(Nc2ccc(N(C)C)cc2)n1 is reported as 3.25 (octanol/buffer, 40 mM buffer; pH 11).
C1=C/COCc2cc(ccc2OCCN2CCCC2)Nc2nccc(n2)-c2cccc(c2)COC/1 gave a CLz/F decrease of 67% (rat Sprague-Dawley male, plasma; oral, dose not given, together with: isavuconazole; relative to: without isavuconazole).
With C[C@@H]1CCO[C@H]2Cn3cc(C(=O)NCc4ccc(F)cc4F)c(=O)c(O)c3C(=O)N12 the drug concentration was 486 ± 60.9 ng/mL (Tat+ transgenic mouse, plasma; subcutaneous osmotic pump, dose not given, 5 d).
Under “adverse event Flatulence”, CO[C@H]1/C=C/O[C@@]2(C)Oc3c(C)c(O)c4c(O)c(c(/C=N/N5CCN(C)CC5)c(O)c4c3C2=O)NC(=O)/C(C)=C\C=C\[C@H](C)[C@H](O)[C@@H](C)[C@@H](O)[C@@H](C)[C@H](OC(C)=O)[C@@H]1C is recorded as 0% (healthy humans; oral, dose not given).
CNCc1ccc(-c2[nH]c3cc(F)cc4c3c2CCNC4=O)cc1 — result for “incidence of decreased appetite”: 28.6% (human patients; oral, dose not given, all grades, all doses).
Cc1cc(-c2nnc(N)nc2-c2ccc(F)cc2)cc(Cl)n1: “patients with immune-mediated AE” 0% (refers to: Hypothyroidism; IO-naive colorectal cancer patients; oral, dose not given, treatment-related, grade 2).
For CCO, the priapism was 11.1% (human; concentration not given, treatment-emergent adverse event).
COc1ccc([C@@H](O)c2cc(-c3ncnc4cc(N5CCOCC5)ccc34)c(F)cc2Cl)nn1: “decreased appetite TEAE incidence” 17% (locally advanced rectal cancer patients; 100 mg, together with: capecitabine and radiotherapy).
NCc1cc2c(cc1F)C(=O)N(C1CCC(=O)NC1=O)C2 (stereo not shown) has a remaining compound of less than 1% (male cynomolgus monkey, whole blood; 3 h).
For CCO[C@H]1CCN(Cc2c(OC)cc(C)c3[nH]ccc23)[C@H](c2ccc(C(=O)O)cc2)C1, “incidence of flatulence” read 0% (PNH patients, active haemolysis; oral, 200 mg, 8 weeks, treatment).
The haematocrit of [O]=[Co].[O]=[Co][O][Co]=[O] is reported as 49.5% (Crl:CD(SD) rat male, blood; oral, 73.4 mg Co/kg/day, 90 days).
The diarrhoea incidence of Cc1ccc(Sc2ccccc2N2CCNCC2)c(C)c1 is reported as 50% (healthy adult men; oral, 40 mg single dose, treatment-emergent adverse events).
Cc1cc(C)c(CNC(=O)c2cc(Cl)c3c(c2C)O[C@@](C)([C@H]2CC[C@H](N(C)C)CC2)O3)c(=O)[nH]1 — result for “patients with grade ≥3 TEAE”: 4.2% (refers to: Diarrhea; human patients; oral, 200 mg once daily, 1 day onset day 14).
CCn1ccc2c([C@@](O)(CC)c3ccc(C(F)(F)F)nc3)n(C)nc2c1=O gave a CLint,u of 50.5 mL/min/kg (rat Sprague-Dawley male, blood; intravenous, 1 mg/kg).

For quick reference, copied from above:
The logP of COC(=O)c1ccccc1Oc1nc(NC(C)C)nc(NC(C)C)n1 is reported as 3.54 (octanol/buffer; pH 11, known kinase inactives set).
For O=C(COc1ccc(Cl)cc1)NC12CC(c3nnc([C@H]4C[C@@H](OC(F)(F)F)C4)o3)(C1)C2, the steady-state Ctrough was 13 µM (healthy human both sexes, plasma; oral, 260 mg once daily, day 14, mean).
For C=CC(=O)N1CCC(c2ccc(C(N)=O)c(-c3ccc(Oc4ccccc4)cc3)n2)CC1, “incidence of serious bladder cancer” read 0.9% (CTCAE 4.03; patients with relapsed/refractory MCL; oral, dose not given).
With O=C1c2ccccc2C(=O)N1CCCc1nc(-c2cccc([N+](=O)[O-])c2)no1 the logP was 2.27 (octanol/buffer; pH 11).
Under “dose-normalised C6 (C6/D)”, CC1(C)CCC(CN2CCN(c3ccc(C(=O)NS(=O)(=O)c4ccc(NCC5CCOCC5)c([N+](=O)[O-])c4)c(Oc4cnc5[nH]ccc5c4)c3)CC2)=C(c2ccc(Cl)cc2)C1 is recorded as 0.319 ± 0.196 (UPLC-MS/MS; patients; oral, dose not given, 6 h, together with: triazole antifungals).
NC1(C(=O)N[C@@H](CCO)c2ccc(Cl)cc2)CCN(c2nc[nH]c3nccc2-3)CC1: “incidence of decreased appetite” 0% (metastatic CRPC patients; 320 mg b.i.d., grade 3 to 4, treatment-related, together with: enzalutamide 160 mg daily).
